Results collected from several papers.
Protocols differ between the studies behind these lines. ± marks the error that the study gave.

SMILES = Cc1cn([C@H]2C[C@H](N=[N+]=[N-])[C@@H](CO)O2)c(=O)[nH]c1=O; test = mitochondrial swelling; system = BALB/cByJ female mouse liver mitochondria; conditions = 30 min, added: succinate + rotenone; scale = baseline: CaCl2 maximal swelling; quantity = EC20; value = > 200 µM
SMILES = O=C(O)c1cccc(O)c1; system = human, fasted baseline, cerebrospinal fluid; quantity = mean concentration; value = 367 ± 292 nM
SMILES = Cc1cc(C)c2c(c1)[C@@H](N(Cc1cc(C(F)(F)F)cc(C(F)(F)F)c1)c1nnn(C)n1)CCCN2C[C@H]1CC[C@H](C(=O)O)CC1; system = human, dyslipidemic patients, plasma; conditions = oral, 100 mg daily, monotherapy, geometric mean; quantity = AUC(0-tau) at steady state; value = 5900 ng·h/mL
SMILES = CC[C@H](C)C(=O)O[C@H]1C[C@H](O)C=C2C=C[C@H](C)[C@H](CC[C@@H](O)C[C@@H](O)CC(=O)O)[C@H]21; test = mitochondrial swelling; system = BALB/cByJ female mouse liver mitochondria; conditions = 30 min, added: succinate + rotenone; scale = baseline: CaCl2 maximal swelling; quantity = EC20; value = > 200 µM
SMILES = O=S(=O)(O)Oc1cc([C@H]2Oc3cc(O)cc(O)c3C[C@H]2O)ccc1O; system = human, fasted baseline, cerebrospinal fluid; quantity = median concentration; value = 11.9 nM
SMILES = COC(=O)C[C@](O)(CCCC(C)(C)O)C(=O)O[C@@H]1C(OC)=C[C@]23CCCN2CCc2cc4c(cc2[C@H]13)OCO4; system = CD1 mouse, bone marrow; conditions = subcutaneous, 1 mg/kg, 24 h, below quantification limit 1.00 ng/mL; quantity = tissue concentration; value = not detected
SMILES = CC/C(=C(\c1ccccc1)c1ccc(OCCN(C)C)cc1)c1ccccc1; system = female breast cancer patients, plasma; conditions = dose not given, median of sample A patients, added: weak CYP2D6-inhibiting SSRI escitalopram or citalopram; quantity = Ctrough; value = 290 nM
SMILES = CN1CCN(CCOc2cc(OC3CCOCC3)c3c(Nc4c(Cl)ccc5c4OCO5)ncnc3c2)CC1; system = beagle dog, both sexes; conditions = oral, 5 mg/kg/day, week 39, repeated daily dosing; quantity = AUC(0-t); value = 5490 ng·h/mL
SMILES = NCCCC[C@@H]1NC(=O)[C@@H](Cc2c[nH]c3ccccc23)NC(=O)[C@H](c2ccccc2)NC(=O)[C@@H]2C[C@@H](OC(=O)NCCN)CN2C(=O)[C@H](Cc2ccccc2)NC(=O)[C@H](Cc2ccc(OCc3ccccc3)cc2)NC1=O; test = radioimmunoassay; system = healthy human male volunteers, plasma; conditions = subcutaneous, 30 µg; quantity = alpha half-life; value = 2.2 ± 0.8 h
SMILES = CCc1oc2ccccc2c1C(=O)c1cc(Br)c(O)c(Br)c1; test = metabolic stability; system = Sprague-Dawley rat, liver microsomes; conditions = 1 µM, pH 7.4; quantity = microsomal CLint; value = 43 µL/min/mg
SMILES = CO[C@@]12[C@H](COC(N)=O)C3=C(C(=O)C(C)=C(N)C3=O)N1C[C@@H]1N[C@@H]12; test = cytochrome c release, ELISA; system = BALB/cByJ female mouse liver mitochondria; conditions = 30 min; scale = baseline: alamethicin maximal release; quantity = EC20; value = > 200 µM
SMILES = [2H]C([2H])([2H])Oc1cc2c(cc1OC([2H])([2H])[2H])C1CC(=O)C(CC(C)C)CN1CC2 (stereo not drawn); test = refers to: deuterated β-HTBZ; system = healthy human volunteers, plasma; conditions = oral, 12 mg single dose, standard meal; quantity = dose-normalized AUC(0-inf); value = 5.6 ng·h/mL
SMILES = Cn1c(-c2ccc(C(N)=O)cc2F)nnc1C(C)(C)Oc1c(F)cc(Cl)cc1F; system = young non-Japanese humans, plasma; conditions = oral, 2 mg, day 1, single dose; quantity = median AUC(0-inf); value = 48 ng·h/mL
SMILES = C[C@@H](O)[C@H]1C(=O)N2C(C(=O)O)=C(S[C@@H]3CN[C@H](C(=O)N(C)C)C3)[C@H](C)[C@H]12; test = microdialysis; system = pig (Danish Landrace), cortical bone; conditions = iv infusion, 1000 mg over 10 min, MIC 0.25 µg/mL, added: vancomycin co-administered; quantity = time above MIC; value = 177 min
SMILES = CCCOC(=O)c1ccc(O)cc1; test = mitochondrial swelling; system = BALB/cByJ female mouse liver mitochondria; conditions = 30 min, added: succinate + rotenone; scale = baseline: CaCl2 maximal swelling; quantity = EC20; value = > 800 µM
SMILES = Cc1ccc(NC(=O)c2ccc(CN3CCN(C)CC3)cc2)cc1Nc1nccc(-c2cncc(-c3oncc3C)c2)n1; system = healthy volunteers, plasma; conditions = oral, 25.0 mg once daily, day 7, 7-day dosing, mean; quantity = AUC(0-tau); value = 25400 ng·h/mL
SMILES = CN1CC[C@@H](NC(=O)Nc2ccc(C#N)cc2)C[C@@H]1c1nc2ccccc2[nH]1; system = moderate hepatic impairment, plasma; conditions = oral, 100 mg single dose, fasted, geometric mean; quantity = AUC(0-t), unbound; value = 985 ng·h/mL
SMILES = CC(C)[C@H](NC(=O)[C@@H]1CCCN1C(=O)[C@H](CCCNC(=N)N)NC(=O)[C@H](CS)NC(=O)[C@H](Cc1c[nH]c2ccccc12)NC(=O)[C@H](CCCNC(=N)N)NC(=O)[C@@H](Cc1ccccc1)NC(=O)[C@H](Cc1c[nH]cn1)NC(=O)[C@H](CCC(=O)O)NC(=O)[C@H](CS)NC(=O)[C@H](CS)NC(=O)[C@H](CCCCN)NC(=O)[C@@H]1CC(=O)N[C@@H](CCCNC(=N)N)C(=O)N[C@@H]([C@@H](C)O)C(=O)N[C@@H](CC(=O)O)C(=O)N[C@H](Cc2ccc(O)cc2)C(=O)N1)C(N)=O [technetium-99m labelled]; test = radio-HPLC; system = mouse serum; conditions = 24 h, 37 °C; quantity = serum stability; value = stable
SMILES = CCNC(=O)[C@@H]1CCCN1C(=O)[C@H](CCCNC(=N)N)NC(=O)[C@H](CC(C)C)NC(=O)[C@@H](CC(C)C)NC(=O)[C@H](Cc1ccc(O)cc1)NC(=O)[C@H](CO)NC(=O)[C@H](Cc1c[nH]c2ccccc12)NC(=O)[C@H](Cc1c[nH]cn1)NC(=O)[C@@H]1CCC(=O)N1; system = membrane in isopropyl myristate; conditions = 0.5 mg/mL, 12 h, pH 6.8, 37 °C, receiver 0.5% Tween 80; quantity = permeated fraction; value = 17.8%
SMILES = CC(C)(Oc1ccc(C2CC2(Cl)Cl)cc1)C(=O)O (stereo not drawn); system = female Sprague-Dawley rat; conditions = oral, 7.5 mg/kg/day, 21 days; quantity = growth rate; value = no effect
SMILES = Cc1nc2cccc(OCC(C)(C)C(=O)NC(C)C)c2c(N)c1C(=O)O; system = Sprague-Dawley rat both sexes, plasma; conditions = dietary, 30 mg/kg/day, day 90; quantity = Tmax; value = 1.5 h
SMILES = CC(C)NC(=O)COc1cccc(-c2nc(Nc3ccc4[nH]ncc4c3)c3ccccc3n2)c1; system = male C57BL/6 mouse, plasma; conditions = oral, 100 mg/kg, one-compartment model; quantity = Tmax; value = 1.21 h
SMILES = O=c1c(O)c(-c2ccc(O)cc2)oc2cc(O)cc(O)c12; test = refers to: kaempferol 3- and 7-glucuronides; system = Bcrp1 knockout FVB mice, intestinal S9 fraction; conditions = 1.25 µM, 20 min, pH 7.4; scale = baseline: wild-type mice; quantity = glucuronidation rate decrease; value = ~55%
SMILES = C#CCN(C)Cc1ccccc1; test = cytochrome c release, ELISA; system = BALB/cByJ female mouse liver mitochondria; conditions = 30 min; scale = baseline: alamethicin maximal release; quantity = EC20; value = > 400 µM
SMILES = C[C@@]12C[C@@]3(O)O[C@@H](O1)[C@]1(COC(=O)c4ccccc4)[C@H]3C[C@@]12O[C@@H]1O[C@H](CO)[C@@H](O)[C@H](O)[C@H]1O; system = extracted rat plasma, autosampler; conditions = 750 ng/mL, 24 h, 4 °C, post-preparative stability, middle QC; quantity = accuracy; value = 98.3 % nominal
SMILES = O=C(Cc1cccc(OC(F)(F)F)c1)Nc1ccc(CCCCc2nnc(NC(=O)Cc3ccccn3)s2)nn1; system = human patients, plasma; conditions = oral, 800 mg three times daily fasted, cycle 1 day 15 steady state; quantity = AUC(0-8h); value = 5830 ng·h/mL
SMILES = CC1(C)S[C@@H]2[C@H](NC(=O)[C@H](N)c3ccc(O)cc3)C(=O)N2[C@H]1C(=O)O; test = cytochrome c release, ELISA; system = BALB/cByJ female mouse liver mitochondria; conditions = 30 min; scale = baseline: alamethicin maximal release; quantity = EC20; value = > 400 µM
SMILES = CCN(CC)CCNC(=O)c1c(C)[nH]c(/C=C2\C(=O)Nc3ccc(F)cc32)c1C; system = human, plasma; conditions = oral, 20 mg/m2, day 7; quantity = median trough plasma concentration; value = 35.9 ng/mL
SMILES = CCCC[C@H](NC(C)=O)C(=O)N[C@H]1CCC(=O)NC[C@@H](C(=O)N[C@@H](Cc2c[nH]c3ccccc23)C(N)=O)NC(=O)[C@H](CCCNC(=N)N)NC(=O)[C@@H](Cc2ccccc2)NC(=O)[C@H](Cc2c[nH]cn2)NC1=O; system = beagle dog, male, plasma; conditions = subcutaneous, 1.5 mg/kg daily, day 28; quantity = Tmax; value = 0.75 h
SMILES = Cc1[nH]nc(C(F)(F)F)c1Cc1sc2c(c1C(=O)N1C[C@](C)(O)CO1)c(=O)n(C)c(=O)n2C(C)C; test = TMDD model; system = BALB/c mice, female, plasma; conditions = intravenous and oral; quantity = elimination rate constant; value = 0.000314 ± 2.5e-05 s⁻¹
SMILES = CN(C)C/C=C/C(=O)Nc1cc2c(Nc3ccc(F)c(Cl)c3)ncnc2cc1O[C@H]1CCOC1; system = human, plasma; conditions = oral, 20 mg once daily, day 27, geometric mean; quantity = Vz/F at steady state; value = 3160 L
SMILES = O=c1[nH]c(=O)c(Cc2cccc(C(F)(F)F)c2)c([C@H]2CC[C@H](c3ccccc3)CC2)[nH]1; system = human, fasted, plasma; conditions = oral, 1500 mg single dose, geometric mean; quantity = Cmax; value = 645 ng/mL
SMILES = O=C(N/N=C/c1ccc([N+](=O)[O-])o1)c1ccc(O)cc1; test = cytochrome c release, ELISA; system = BALB/cByJ female mouse liver mitochondria; conditions = 30 min; scale = baseline: alamethicin maximal release; quantity = EC20; value = > 400 µM
SMILES = C[N+]1(CC(=O)OC2CCCCCCCCCCC2)CCCC1.[I-]; test = metabolic stability; system = male CD-1 mouse, liver microsomes; conditions = 1 µM, pH 7.4; quantity = half-life; value = 3.8 min
SMILES = COc1cccc(-c2ccc(NC(=O)C3=C(C(=O)O)CCC3)c(F)c2)c1; system = human, male, plasma; conditions = oral, 50 mg once daily, day 13, geometric mean; quantity = AUC(0-24h); value = 166000 ng·h/mL
SMILES = Cc1cc(NS(=O)(=O)c2ccc(N)cc2)no1; test = mitochondrial swelling; system = BALB/cByJ female mouse liver mitochondria; conditions = 30 min, added: succinate + rotenone; scale = baseline: CaCl2 maximal swelling; quantity = EC20; value = > 400 µM
SMILES = CCCCCCCCCCN(C)C; test = liver S9 substrate depletion; system = rainbow trout liver S9; conditions = six-surfactant mixture; quantity = in vivo intrinsic clearance; value = 321 mL/h/g liver
SMILES = CC(=O)O[C@H]1C(=O)[C@@]2(C)[C@H]([C@H](OC(=O)c3ccccc3)[C@]3(O)C[C@H](OC(=O)[C@H](O)[C@@H](NC(=O)c4ccccc4)c4ccccc4)C(C)=C1C3(C)C)[C@]1(OC(C)=O)CO[C@@H]1C[C@@H]2O; test = in situ brain perfusion; system = rat; conditions = no efflux inhibition; quantity = log intrinsic permeability; value = -6.63
SMILES = COc1ccnc(CS(=O)(=O)c2nc3ccc(OC(F)F)cc3[nH]2)c1OC; system = obese children with GERD; conditions = oral, pantoprazole, single dose; scale = baseline: CYP2C19 poor over non-poor metabolizers; quantity = AUC(0-last), dose-normalized; value = increased
SMILES = CCCC[C@@H]1NC(=O)[C@@H](NC(=O)[C@H](CCC(=O)O)NC(=O)CNC(=O)CN2CCN(CC(=O)O)CCN(CC(=O)O)CCN(CC(=O)O)CC2)CCCCNC(=O)C[C@@H](C(N)=O)NC(=O)[C@H](C(C)C)NC(=O)[C@@H]2CCCN2C(=O)[C@H](CCCNC(=N)N)NC(=O)CNC(=O)[C@H](Cc2c[nH]c3ccccc23)NC(=O)[C@H](CCCNC(=N)N)NC(=O)[C@@H](Cc2ccccc2)NC(=O)[C@H](Cc2c[nH]cn2)NC(=O)[C@H](CCC(=O)O)NC1=O [indium-111 labelled]; system = C57 mice, B16/F10 lung metastatic melanoma, muscle; conditions = intravenous, 0.037 MBq, 24 h; quantity = tissue uptake; value = 0.03 ± 0.02 %ID/g
SMILES = O=C(/C=C/c1ccc(O)c(O)c1/C=C/c1ccc(O)c(O)c1)O[C@H](Cc1ccc(O)c(O)c1)C(=O)O; test = UPLC-MS/MS; system = Wistar rat, microcirculation dysfunction model, plasma; conditions = oral, 100 mg/kg Salvia miltiorrhiza stem-leaf extract FS; quantity = AUC(0-t); value = 132 ± 29.3 ng·h/mL
SMILES = CC(C)NCC1CCc2cc(CO)c([N+](=O)[O-])cc2N1 (stereo not drawn); system = mouse liver microsomes; conditions = 1 µM, pH 7.4, 0.5 mg protein/mL; quantity = intrinsic clearance; value = 132 µL/min/mg
SMILES = O=C(O)[C@H](c1ccccc1Cl)N1CCc2sccc2C1; test = HPLC-MS/MS; system = feline citrate plasma; conditions = 72 h, 4 °C, storage stability; quantity = deviation from nominal; value = 7%
SMILES = COc1cccc(OCCCN)c1-c1cc(Nc2cnc(C#N)cn2)n[nH]1; system = human, plasma; conditions = intravenous, 105 mg/m², patients, infusion; quantity = Vd; value = 1380 L
SMILES = CC[C@H](C)[C@H](NC(=O)[C@H](CCCCN)NC(=O)[C@@H](NC(=O)[C@H](CC(N)=O)NC(=O)[C@H](C)NC(=O)[C@H](CCCNC(=N)N)NC(=O)[C@H](CCCNC(=N)N)NC(=O)[C@H](CC(N)=O)NC(=O)[C@H](CCCNC(=N)N)NC(=O)[C@@H](NC(=O)[C@H](CCCNC(=N)N)NC(=O)[C@@H](NC(=O)[C@H](CO)NC(=O)[C@@H](NC(=O)[C@H](CS)NC(=O)[C@H](CCCCN)NC(=O)[C@@H](N)CCCNC(=N)N)[C@@H](C)CC)C(C)C)[C@@H](C)CC)[C@@H](C)CC)C(=O)N[C@@H](CS)C(=O)N[C@@H](CC(N)=O)C(=O)O; test = LC-MS; system = PBS; conditions = 0.1 mg/mL; quantity = single disulfide form; value = 98%
